Measured values of several laboratories.
Each line is one published result; not all experiments were run side by side. ± marks the error that the study gave.
F fusion protein: Fusion glycoprotein F0, fusion protein (F, Parainfluenza virus 5, UniProt P04849)
Sequence of UniProt P04849 (whole entry, looked up): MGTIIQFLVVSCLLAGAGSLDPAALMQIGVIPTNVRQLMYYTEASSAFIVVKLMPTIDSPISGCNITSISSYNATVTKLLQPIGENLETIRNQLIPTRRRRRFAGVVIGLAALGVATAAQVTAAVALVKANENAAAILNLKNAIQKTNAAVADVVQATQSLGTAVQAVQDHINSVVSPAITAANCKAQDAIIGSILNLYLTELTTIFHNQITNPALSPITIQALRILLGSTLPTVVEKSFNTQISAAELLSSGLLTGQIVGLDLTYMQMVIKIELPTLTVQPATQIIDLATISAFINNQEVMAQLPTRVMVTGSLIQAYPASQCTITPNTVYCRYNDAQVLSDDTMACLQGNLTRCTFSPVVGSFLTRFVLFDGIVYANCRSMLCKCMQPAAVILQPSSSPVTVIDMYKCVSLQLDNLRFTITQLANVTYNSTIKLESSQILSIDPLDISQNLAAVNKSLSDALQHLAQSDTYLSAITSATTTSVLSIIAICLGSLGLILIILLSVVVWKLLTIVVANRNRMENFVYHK
KCNA3: Potassium voltage-gated channel subfamily A member 3 (KCNA3, Homo sapiens, UniProt P22001)
Sequence of UniProt P22001 (whole entry, looked up): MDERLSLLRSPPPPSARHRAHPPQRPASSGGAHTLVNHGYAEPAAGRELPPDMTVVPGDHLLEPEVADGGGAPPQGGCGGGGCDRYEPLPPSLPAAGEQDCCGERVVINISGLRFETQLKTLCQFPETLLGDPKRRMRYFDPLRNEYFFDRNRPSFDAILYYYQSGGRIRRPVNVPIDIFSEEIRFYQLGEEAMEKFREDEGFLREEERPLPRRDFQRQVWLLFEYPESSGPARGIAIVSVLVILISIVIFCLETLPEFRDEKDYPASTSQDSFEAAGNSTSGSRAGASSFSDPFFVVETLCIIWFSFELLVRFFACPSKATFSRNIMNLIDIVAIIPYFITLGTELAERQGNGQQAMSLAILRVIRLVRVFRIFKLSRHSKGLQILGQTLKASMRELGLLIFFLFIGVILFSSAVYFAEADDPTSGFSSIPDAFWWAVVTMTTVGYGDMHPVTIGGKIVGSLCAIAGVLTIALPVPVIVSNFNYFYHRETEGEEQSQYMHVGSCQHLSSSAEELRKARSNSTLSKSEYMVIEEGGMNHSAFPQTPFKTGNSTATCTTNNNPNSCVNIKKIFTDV
Sequence of UniProt Q15858 (whole entry, looked up): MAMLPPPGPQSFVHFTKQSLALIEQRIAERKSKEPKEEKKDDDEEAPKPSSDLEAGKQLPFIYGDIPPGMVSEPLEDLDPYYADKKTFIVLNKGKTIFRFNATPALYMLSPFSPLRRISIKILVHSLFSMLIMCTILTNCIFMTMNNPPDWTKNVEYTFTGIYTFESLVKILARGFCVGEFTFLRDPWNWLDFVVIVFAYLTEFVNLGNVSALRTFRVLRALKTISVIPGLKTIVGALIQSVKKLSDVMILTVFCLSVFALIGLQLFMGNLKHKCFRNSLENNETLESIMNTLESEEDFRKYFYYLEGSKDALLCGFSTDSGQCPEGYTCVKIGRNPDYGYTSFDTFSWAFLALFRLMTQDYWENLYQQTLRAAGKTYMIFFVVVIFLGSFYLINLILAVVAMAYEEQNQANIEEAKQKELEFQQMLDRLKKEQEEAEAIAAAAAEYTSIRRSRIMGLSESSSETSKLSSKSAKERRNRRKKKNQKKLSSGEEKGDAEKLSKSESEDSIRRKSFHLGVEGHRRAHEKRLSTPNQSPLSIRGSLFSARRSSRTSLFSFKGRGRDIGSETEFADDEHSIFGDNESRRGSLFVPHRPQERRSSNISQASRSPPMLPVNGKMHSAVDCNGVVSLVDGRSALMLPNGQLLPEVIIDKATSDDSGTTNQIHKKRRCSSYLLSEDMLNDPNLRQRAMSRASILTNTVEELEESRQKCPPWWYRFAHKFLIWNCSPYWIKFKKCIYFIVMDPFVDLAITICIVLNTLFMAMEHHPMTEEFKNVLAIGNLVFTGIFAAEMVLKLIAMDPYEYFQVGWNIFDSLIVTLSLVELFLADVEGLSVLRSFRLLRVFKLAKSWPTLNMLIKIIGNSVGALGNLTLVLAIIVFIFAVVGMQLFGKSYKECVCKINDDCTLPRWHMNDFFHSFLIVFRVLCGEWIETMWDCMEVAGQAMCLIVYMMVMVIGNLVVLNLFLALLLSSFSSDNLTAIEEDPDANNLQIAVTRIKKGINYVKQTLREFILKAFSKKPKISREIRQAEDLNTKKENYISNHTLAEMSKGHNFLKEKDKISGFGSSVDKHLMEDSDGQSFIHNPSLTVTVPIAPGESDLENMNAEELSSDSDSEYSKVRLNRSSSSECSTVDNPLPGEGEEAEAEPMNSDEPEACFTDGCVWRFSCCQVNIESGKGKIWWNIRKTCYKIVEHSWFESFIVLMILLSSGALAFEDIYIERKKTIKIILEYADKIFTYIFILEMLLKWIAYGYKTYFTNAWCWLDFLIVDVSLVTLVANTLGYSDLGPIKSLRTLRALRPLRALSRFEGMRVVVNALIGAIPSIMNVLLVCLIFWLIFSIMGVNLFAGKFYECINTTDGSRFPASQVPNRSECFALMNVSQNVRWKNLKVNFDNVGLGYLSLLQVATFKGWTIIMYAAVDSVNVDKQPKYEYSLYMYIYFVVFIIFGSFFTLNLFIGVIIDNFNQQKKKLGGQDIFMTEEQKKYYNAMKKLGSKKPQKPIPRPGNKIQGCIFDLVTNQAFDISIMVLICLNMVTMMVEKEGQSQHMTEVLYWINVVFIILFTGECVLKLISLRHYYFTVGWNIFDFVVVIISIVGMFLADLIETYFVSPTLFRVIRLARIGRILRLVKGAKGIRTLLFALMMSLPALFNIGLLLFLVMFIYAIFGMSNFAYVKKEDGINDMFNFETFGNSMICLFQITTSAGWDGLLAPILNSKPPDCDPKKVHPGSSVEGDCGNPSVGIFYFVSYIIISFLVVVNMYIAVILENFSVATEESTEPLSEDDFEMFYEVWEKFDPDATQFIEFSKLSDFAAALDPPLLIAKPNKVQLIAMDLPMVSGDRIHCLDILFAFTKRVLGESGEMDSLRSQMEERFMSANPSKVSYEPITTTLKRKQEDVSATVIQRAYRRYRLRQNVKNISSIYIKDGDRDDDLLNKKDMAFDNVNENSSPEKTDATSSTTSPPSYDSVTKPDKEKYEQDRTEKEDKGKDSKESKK
Sequence of UniProt P32300 (whole entry, looked up): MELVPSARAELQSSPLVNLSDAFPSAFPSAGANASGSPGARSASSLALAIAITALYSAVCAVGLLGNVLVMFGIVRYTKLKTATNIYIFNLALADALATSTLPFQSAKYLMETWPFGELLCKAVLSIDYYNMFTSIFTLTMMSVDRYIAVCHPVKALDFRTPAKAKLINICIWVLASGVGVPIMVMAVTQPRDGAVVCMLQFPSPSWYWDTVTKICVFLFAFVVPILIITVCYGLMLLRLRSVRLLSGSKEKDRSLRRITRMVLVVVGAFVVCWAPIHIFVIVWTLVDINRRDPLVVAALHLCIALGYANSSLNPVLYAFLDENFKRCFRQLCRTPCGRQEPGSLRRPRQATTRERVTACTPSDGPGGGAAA

CC(C)C[C@H](NC(=O)[C@H](CC(=O)O)NC(=O)[C@H](Cc1ccc(O)cc1)NC(=O)[C@H](CCCCN)NC(=O)[C@@H]1CSSC[C@@H]2NC(=O)[C@H](CCCCN)NC(=O)[C@H](CC(=O)O)NC(=O)[C@H](CC(N)=O)NC(=O)[C@H](CO)NC(=O)[C@@H]3CCCN3C(=O)[C@H](CC(N)=O)NC(=O)[C@@H]3CSSC[C@H](NC(=O)[C@H](C(C)C)NC(=O)[C@H](CC(C)C)NC(=O)[C@H](CO)NC(=O)[C@H](CO)NC(=O)[C@H](CO)NC(=O)[C@H](CCCCN)NC(=O)[C@H](CSSC[C@H](NC(=O)[C@H](C)N)C(=O)N[C@@H](CC(C)C)C(=O)NCC(=O)N[C@@H](Cc4ccccc4)C(=O)NCC(=O)N[C@@H](CCC(=O)O)C(=O)N[C@@H](CCCCN)C(=O)N3)NC2=O)C(=O)N[C@@H](CO)C(=O)N[C@@H](CCC(N)=O)C(=O)N[C@@H](CCCCN)C(=O)N[C@@H](Cc2c[nH]cn2)C(=O)N[C@@H](CCCCN)C(=O)N[C@@H](Cc2c[nH]c3ccccc23)C(=O)N1)C(=O)O — IC50 (SCN9A (Homo sapiens, UniProt Q15858); sodium current, inhibitor, whole-cell patch clamp; HEK293T transfected with hNav1.7; room temperature, holding -80 mV, step to 0 mV for 50 ms): 487 nM
C[C@@H]1NC(=O)[C@@H]2CSC(=N2)c2cc3cc(n2)C2=N[C@@H](CS2)C(=O)NCC[C@@H](C(N)=O)NC(=O)[C@H](C)NC(=O)[C@H](CCCCN)NC(=O)[C@H](Cc2ccccc2)NC(=O)[C@H](CCCCN)NC(=O)[C@H](C)NC(=O)[C@H](CS3)NC(=O)[C@H](C)NC(=O)[C@H](CCCCN)NC(=O)[C@H](CCCNC(=N)N)NC(=O)[C@H](CCCCN)NC1=O — IC50 (Genome polyprotein, NS2B-NS3 protease (ZIKV, UniProt A0A024B7W1); protease activity, inhibitor, FRET; Zika virus): 260 nM
NC(=O)[C@H](CO)NC(=O)[C@@H]1CCCN1C(=O)[C@H](Cc1ccc(O)cc1)NC(=O)CNC(=O)[C@H](Cc1ccccc1)NC(=O)[C@@H](CCCCNC(=O)CBr)NC(=O)[C@@H](N)Cc1ccc(O)cc1 — IC50 (Oprd1 (Mus musculus, UniProt P32300); radioligand binding; CHO cells; with: 0.15 nM [3H]DPDPE): 382 ± 22 nM
CC[C@H](C)[C@H](NC(=O)[C@H](C)NC(=O)[C@H](CO)NC(=O)[C@H](CC(C)C)NC(=O)[C@H](Cc1ccc(O)cc1)NC(=O)[C@@H](NC(=O)[C@H](CC(=O)O)NC(=O)[C@H](CO)NC(=O)[C@H](CCC(N)=O)NC(=O)[C@H](C)NC(=O)[C@H](CC(C)C)NC(=O)[C@H](Cc1c[nH]cn1)NC(=O)[C@H](CCC(N)=O)NC(=O)[C@H](CC(C)C)NC(=O)[C@H](C)NC(=O)[C@H](CC(=O)O)NC(=O)[C@H](CO)NC(=O)[C@H](CC(C)C)NC(=O)[C@H](CO)NC(=O)[C@H](CCCCN)NC(=O)[C@H](CC(N)=O)NC(=O)[C@@H](NC(=O)[C@H](C)NC(=O)[C@H](C)NC(=O)[C@H](CC(C)C)NC(=O)[C@H](CC(N)=O)NC(=O)[C@H](CCC(N)=O)NC(=O)[C@H](CO)NC(=O)[C@@H](NC(=O)[C@H](CC(=O)O)NC(=O)[C@@H](NC(=O)[C@@H]1CCCN1C(=O)[C@H](CC(=O)O)NC(=O)[C@@H](NC(=O)[C@H](CO)NC(=O)[C@H](CC(C)C)NC(=O)[C@@H](NC(=O)[C@H](CCC(N)=O)NC(=O)[C@H](CO)NC(=O)[C@H](CO)NC(=O)[C@H](CCC(=O)O)NC(=O)[C@H](CC(C)C)NC(=O)[C@@H](N)CCCCN)[C@@H](C)CC)[C@@H](C)CC)C(C)C)[C@@H](C)CC)C(C)C)[C@@H](C)O)C(=O)O — IC50 (F fusion protein; cell-cell fusion, inhibitor, luciferase reporter; Vero plus BSR-T7 cells; 6 h, 37 °C, with: SV5 F and HN): 83 ± 11 nM
CC[C@H](C)[C@@H]1NC(=O)[C@@H](NC(=O)[C@H](CO)NC(=O)[C@@H](N)CCCNC(=N)N)CSSC[C@@H](C(=O)O)NC(=O)[C@H]([C@@H](C)O)NC(=O)CNC(=O)[C@@H]2CSSC[C@@H]3NC(=O)[C@H](CCC(N)=O)NC(=O)[C@H](Cc4ccccc4)NC(=O)[C@H](C)NC(=O)[C@H]([C@@H](C)O)NC(=O)[C@H](CSSC[C@H](NC(=O)[C@H](Cc4ccccc4)NC(=O)[C@H](CO)NC(=O)[C@H](CC(C)C)NC(=O)[C@H](CCCNC(=N)N)NC(=O)[C@H](Cc4ccc(O)cc4)NC(=O)[C@H](CCCCN)NC(=O)[C@H](CCSC)NC(=O)[C@H](CO)NC(=O)[C@H](Cc4cnc[nH]4)NC(=O)[C@H](CCCCN)NC3=O)C(=O)N[C@@H](CCCNC(=N)N)C(=O)N[C@@H](CCCCN)C(=O)N[C@@H]([C@@H](C)O)C(=O)N2)NC(=O)[C@H](CCCNC(=N)N)NC(=O)[C@H](CO)NC(=O)[C@H](CCCCN)NC(=O)[C@@H]2CCCN2C(=O)[C@H]([C@@H](C)CC)NC(=O)[C@H]([C@@H](C)O)NC(=O)[C@H](CC(=O)O)NC1=O — IC50 (KCNA3; ion current, inhibitor, two-electrode voltage clamp; oocytes): 0.0574 nM
CC[C@@H](C)[C@H]1NC(=O)[C@H](NC(=O)[C@@H](CO)NC(=O)[C@H](N)CCCNC(=N)N)CSSC[C@H](C(=O)O)NC(=O)[C@@H]([C@H](C)O)NC(=O)CNC(=O)[C@H]2CSSC[C@H]3NC(=O)[C@@H](CCC(N)=O)NC(=O)[C@@H](Cc4ccccc4)NC(=O)[C@@H](C)NC(=O)[C@@H]([C@H](C)O)NC(=O)[C@@H](CSSC[C@@H](NC(=O)[C@@H](Cc4ccccc4)NC(=O)[C@@H](CO)NC(=O)[C@@H](CC(C)C)NC(=O)[C@@H](CCCNC(=N)N)NC(=O)[C@@H](Cc4ccc(O)cc4)NC(=O)[C@@H](CCCCN)NC(=O)[C@@H](CCSC)NC(=O)[C@@H](CO)NC(=O)[C@@H](Cc4c[nH]cn4)NC(=O)[C@@H](CCCCN)NC3=O)C(=O)N[C@H](CCCNC(=N)N)C(=O)N[C@H](CCCCN)C(=O)N[C@H]([C@H](C)O)C(=O)N2)NC(=O)[C@@H](CCCNC(=N)N)NC(=O)[C@@H](CO)NC(=O)[C@@H](CCCCN)NC(=O)[C@H]2CCCN2C(=O)[C@@H]([C@H](C)CC)NC(=O)[C@@H]([C@H](C)O)NC(=O)[C@@H](CC(=O)O)NC1=O — IC50 (KCNA3; ion current, blocker, cut-open oocyte voltage clamp; Xenopus laevis oocytes expressing hKv1.3; preparation possibly contaminated): 450 ± 110 nM
CC[C@H](C)[C@H](NC(=O)[C@H](CCCNC(=N)N)NC(=O)[C@H](Cc1ccccc1)NC(=O)[C@H](Cc1c[nH]cn1)NC(=O)[C@@H](NC(=O)[C@H](Cc1ccccc1)NC(=O)[C@H](CC(C)C)NC(=O)[C@H](CC(C)C)NC(=O)[C@H](CCC(N)=O)NC(=O)[C@H](CCC(N)=O)NC(=O)[C@H](CC(C)C)NC(=O)[C@@H]1CCCC=CCCC[C@H](NC(=O)[C@H](CCC(=O)O)NC(C)=O)C(=O)N[C@@H]([C@@H](C)CC)C(=O)N[C@@H]([C@@H](C)CC)C(=O)N[C@@H](CCCNC(=N)N)C(=O)N1)[C@@H](C)CC)C(=O)NCC(N)=O — IC50 (Gag-Pol polyprotein, integrase (gag-pol, Human immunodeficiency virus type 1 group M subtype B, UniProt P04585); 3′-end processing, inhibitor; HIV-1): 2500 ± 400 nM
CC(C)C[C@@H]1NC(=O)[C@H](Cc2c[nH]c3ccccc23)NC(=O)[C@H](Cc2ccc(O)cc2)NC(=O)[C@H](CCCNC(=N)N)NC(=O)[C@@H](NC(=O)[C@@H](N)CCC(=O)O)CSSC[C@@H]2NC(=O)[C@@H]3CSSC[C@@H](C(=O)N[C@H](C(=O)N[C@@H](Cc4c[nH]c5ccccc45)C(=O)N[C@@H](CC(=O)O)C(=O)NCC(=O)N[C@H](C(=O)N[C@@H](Cc4ccccc4)C(=O)N[C@@H](CO)C(=O)O)[C@@H](C)O)C(C)C)NC(=O)[C@H](Cc4c[nH]c5ccccc45)NC(=O)CNC(=O)[C@H](Cc4c[nH]cn4)NC(=O)[C@H](CCCNC(=N)N)NC(=O)[C@H](CCCNC(=N)N)NC(=O)[C@H](CO)NC(=O)[C@H](CSSC[C@H](NC(=O)CNC(=O)CNC1=O)C(=O)N[C@@H](CO)C(=O)N[C@@H](C)C(=O)NCC(=O)N[C@@H](CCC(N)=O)C(=O)N[C@@H]([C@@H](C)O)C(=O)N3)NC(=O)[C@H](C(C)C)NC(=O)[C@H](CC(C)C)NC(=O)[C@H](Cc1c[nH]cn1)NC(=O)[C@H](CCCCN)NC2=O — IC50 (CACNA1H (Homo sapiens, UniProt O95180); calcium signal, antagonist, fluorescence): 1400 nM
CC[C@H](C)[C@H](NC(=O)[C@H](C)NC(=O)[C@H](CO)NC(=O)[C@H](CC(C)C)NC(=O)[C@H](Cc1ccc(O)cc1)NC(=O)[C@@H](NC(=O)[C@H](CC(=O)O)NC(=O)[C@H](CO)NC(=O)[C@H](CCC(N)=O)NC(=O)[C@H](C)NC(=O)[C@H](CC(C)C)NC(=O)[C@H](Cc1c[nH]cn1)NC(=O)[C@H](CCC(N)=O)NC(=O)[C@H](CC(C)C)NC(=O)[C@H](C)NC(=O)[C@H](CC(=O)O)NC(=O)[C@H](CO)NC(=O)[C@H](CC(C)C)NC(=O)[C@H](CO)NC(=O)[C@H](CCCCN)NC(=O)[C@H](CC(N)=O)NC(=O)[C@@H](NC(=O)[C@H](C)NC(=O)[C@H](C)NC(=O)[C@H](CC(C)C)NC(=O)[C@H](CC(N)=O)NC(=O)[C@H](CCC(N)=O)NC(=O)[C@H](CO)NC(=O)[C@@H](NC(=O)[C@H](CC(=O)O)NC(=O)[C@@H](NC(=O)[C@@H]1CCCN1C(=O)[C@H](CC(=O)O)NC(=O)[C@@H](NC(=O)[C@H](CO)NC(=O)[C@H](CC(C)C)NC(=O)[C@@H](NC(=O)[C@H](CCC(N)=O)NC(=O)[C@H](CO)NC(=O)[C@H](CO)NC(=O)[C@H](CCC(=O)O)NC(=O)[C@H](CC(C)C)NC(=O)[C@@H](N)CCCCN)[C@@H](C)CC)[C@@H](C)CC)[C@@H](C)CC)[C@@H](C)CC)C(C)C)[C@@H](C)O)C(=O)O — IC50 (F fusion protein; cell-cell fusion, inhibitor, luciferase reporter; Vero plus BSR-T7 cells; 6 h, 37 °C, with: SV5 F and HN): 50 ± 7 nM

Some of these lines once more:
CC(C)C[C@H](NC(=O)[C@H](CC(=O)O)NC(=O)[C@H](Cc1ccc(O)cc1)NC(=O)[C@H](CCCCN)NC(=O)[C@@H]1CSSC[C@@H]2NC(=O)[C@H](CCCCN)NC(=O)[C@H](CC(=O)O)NC(=O)[C@H](CC(N)=O)NC(=O)[C@H](CO)NC(=O)[C@@H]3CCCN3C(=O)[C@H](CC(N)=O)NC(=O)[C@@H]3CSSC[C@H](NC(=O)[C@H](C(C)C)NC(=O)[C@H](CC(C)C)NC(=O)[C@H](CO)NC(=O)[C@H](CO)NC(=O)[C@H](CO)NC(=O)[C@H](CCCCN)NC(=O)[C@H](CSSC[C@H](NC(=O)[C@H](C)N)C(=O)N[C@@H](CC(C)C)C(=O)NCC(=O)N[C@@H](Cc4ccccc4)C(=O)NCC(=O)N[C@@H](CCC(=O)O)C(=O)N[C@@H](CCCCN)C(=O)N3)NC2=O)C(=O)N[C@@H](CO)C(=O)N[C@@H](CCC(N)=O)C(=O)N[C@@H](CCCCN)C(=O)N[C@@H](Cc2c[nH]cn2)C(=O)N[C@@H](CCCCN)C(=O)N[C@@H](Cc2c[nH]c3ccccc23)C(=O)N1)C(=O)O — IC50 (SCN9A (Homo sapiens, UniProt Q15858); sodium current, inhibitor, whole-cell patch clamp; HEK293T transfected with hNav1.7; room temperature, holding -80 mV, step to 0 mV for 50 ms): 487 nM
